Measurements gathered from unrelated publications.
Compare with care: the assays were run in different laboratories. Numbers after ± are the reported error.

`CC[C@H](C)[C@@H]1NC(=O)[C@H](Cc2ccc(O)cc2)NC(=O)[C@@H](N)CSSC[C@@H](C(=O)N2CCC[C@H]2C(=O)N[C@@H](CC(C)C)C(=O)NCC(N)=O)NC(=O)[C@H](CC(N)=O)NC(=O)[C@H](CCC(N)=O)NC1=O` — result for “AUC above baseline”: 206 ± 45 pg·30 min/sample (microdialysis, radioimmunoassay; C57BL/6J male mice, wild type, amygdala extracellular fluid; intranasal, 12 µg, incremental area over baseline).
For `Oc1ccc(C=Cc2cc(O)cc(O)c2)cc1`, the AUC was 100 ± 10 ng·h/mL (male ApcMin/+ mice, plasma; oral gavage, 45 µg/kg, together with: BaP 100 µg/kg).
`Cc1cc(-c2cc(OC(=O)c3ccccc3)ccc2Cl)cc2nnc(Nc3ccc(OCCN4CCCC4)cc3)nc12` gave an AUC of 8.13 µM·h (C57BL/6 mice, sclera and choroid; topical ocular, 1 %, 0 to 24 h).
With `Cn1ncnc1[C@H]1c2n[nH]c(=O)c3cc(F)cc(c23)N[C@@H]1c1ccc(F)cc1` the AUC was 723 ng·h/mL (female FVB Abcb1/Abcg2 knockout mice, plasma; oral, 0.5 mg/kg, 0 to 4 h, no novobiocin pretreatment).
With `OCCc1ccc(O)c(O)c1` the AUC was 0.021 ± 0.002 nmol·min/g (C57BL/6J obese male mice, brain; oral, 200 mg/kg, 0 to 12 h).
For `c1ccc2c(c1)cc1ccc3cccc4ccc2c1c34`, the AUC was 120 ± 5 ng·h/mL (male ApcMin/+ mice, plasma; oral gavage, 100 µg/kg, together with: RVT 45 µg/kg).
`CN1CCN(c2ccc(Nc3ncc4cc(C#N)c(=O)n(C5CCCC5)c4n3)cc2)CC1` gave an AUC of 19800 ng·h/mL (NIH Swiss nude mice, intracerebral U87 tumour, brain; intravenous, 25 mg/kg, together with: gefitinib 200 mg/kg oral 1 h before).
With `CC(=O)C=Cc1ccc(O)c(O)c1` the AUC was 0.15 ± 0.012 nmol·min/g (C57BL/6J obese male mice, brain; oral, 200 mg/kg, 0 to 12 h).
`CCCC1O[C@@H]2C[C@H]3[C@@H]4CCC5=CC(=O)C=C[C@]5(C)[C@H]4[C@@H](O)C[C@]3(C)[C@]2(C(=O)CO)O1` (stereo partly drawn) has an AUC of 0.038 µM·h (CD1 mice, plasma; subcutaneous, 0.2 mg/kg).

Repeated from above:
With `CC(=O)C=Cc1ccc(O)c(O)c1` the AUC was 0.15 ± 0.012 nmol·min/g (C57BL/6J obese male mice, brain; oral, 200 mg/kg, 0 to 12 h).
